Results pooled from the literature.
Protocols differ between the studies behind these lines.

Under “patients with first-degree AV block”, `C=CCNc1c(O)cc2c(O)c1C[C@@H](C)C[C@H](OC)[C@H](O)[C@@H](C)/C=C(\C)[C@H](OC(N)=O)[C@@H](OC)/C=C\C=C(/C)C(=O)N2` is recorded as 22% (human unresectable metastatic GIST or sarcoma; intravenous, dose not given, treatment-emergent, all doses).
`C[C@@H]1OC(=O)NN=C1c1ccc(-c2ccc(F)cc2)c(C(F)(F)F)c1`: “patients with adverse event” 50% (phase I trial, item: Ascites all grades; human patients; 20 mg loading then 1 mg daily).
Under “patients with laboratory abnormality”, `Cn1nc(NS(C)(=O)=O)c2c(Cl)ccc(-n3c([C@H](Cc4cc(F)cc(F)c4)NC(=O)Cn4nc(C(F)F)c5c4C(F)(F)[C@@H]4C[C@H]54)nc4nc(OCCC(F)(F)F)ccc4c3=O)c21` is recorded as 0% (item: total cholesterol grade 3 increase; human; 200 mg once daily, powder in bottle).
Under “patients with treatment-related asthenia”, `CN[C@@H](C)C(=O)N[C@H]1CN(S(=O)(=O)c2cccc(S(=O)(=O)N3CC[C@H]4CC[C@@H](C(=O)NC(c5ccccc5)c5ccccc5)N4C(=O)[C@@H](NC(=O)[C@H](C)NC)C3)c2)CC[C@H]2CC[C@@H](C(=O)NC(c3ccccc3)c3ccccc3)N2C1=O` is recorded as 0% (human, advanced solid tumours; 4 mg).
`CN(C)C(=O)c1cc2cnc(Nc3ccc(N4CCNCC4)cn3)nc2n1C1CCCC1` — result for “patients with adverse event”: 4.8% (item: Infections, AESI; human, HR+/HER2− advanced breast cancer; oral, dose not given, grade 3, CTCAE v4.03).
`COc1ccc(-c2c(-c3ccc(C#N)c(F)c3)nc(N3CCC(N)CC3)n(C)c2=O)cc1F` — result for “patients with serious TEAE”: 2% (item: acute kidney injury; human patients; oral, dose not given, dose escalation).
`CNC(=O)c1cc(Oc2ccc(NC(=O)Nc3cc(C(C)(C)C)nn3-c3ccc4ncccc4c3)c(F)c2)ccn1`: “patients with related serious Cardiomyopathy AE” 2% (human, trial; oral, dose not given, all doses).
`C[C@]1(O)C[C@@](N)(c2ccc(-c3nc4n(c3-c3ccccc3)COc3ccncc3-4)cc2)C1`: “patients with Dyspnea TEAE” 25% (human, advanced or metastatic solid tumours; 24 mg intermittent, phase I dose escalation).
`N[C@@H]1c2ccccc2OC12CCN(c1cnc3c(N4CCCc5ncccc54)n[nH]c3n1)CC2`: “patients with adverse event” 27% (item: anemia; human advanced or metastatic solid tumours; oral, dose not given, phase Ia all doses).
`Cn1cncc1-c1c(F)cncc1NC(=O)c1c(N)nn2cc(F)cnc12` — result for “patients grade ≥3 Anemia”: 100% (human patients; oral, 150 mg twice daily, 4 days on 3 days off).
`C=CC(=O)Nc1cc(Nc2nccc(Nc3cc(Cl)c(F)cc3C(C)(C)O)n2)c(OC)cc1N1CC[C@@H](N(C)C)C1` — result for “patients with hypokalaemia”: 11.1% (human patients; oral, 100 mg, treatment-emergent adverse events).
`O=C1Nc2cc3[nH]nc(-c4ccncc4)c3cc2CN1Cc1ccccc1`: “patients with vomiting” 33% (CTCAE v4.03; human, relapsed or refractory advanced solid tumours; intravenous, 9.6 mg/kg, pooled schedules).
`Cc1cn([C@H]2O[C@@H](CO[P@@](=O)(N[C@@H](C)C(=O)OC(C)C)Oc3ccccc3)[C@H](O)[C@H]2F)c(=O)[nH]c1=O`: “patients with TEAE” 17% (item: Headache; human; 50 mg).
`COc1ncnn2ccc(-c3cnc4nc(C)n(Cc5nnc([C@@H](C)F)o5)c4c3)c12`: “patients with hypotension” 0% (human; oral, dose not given, grade 5).

A few entries again:
`Cc1cn([C@H]2O[C@@H](CO[P@@](=O)(N[C@@H](C)C(=O)OC(C)C)Oc3ccccc3)[C@H](O)[C@H]2F)c(=O)[nH]c1=O`: “patients with TEAE” 17% (item: Headache; human; 50 mg).
`CN(C)C(=O)c1cc2cnc(Nc3ccc(N4CCNCC4)cn3)nc2n1C1CCCC1` — result for “patients with adverse event”: 4.8% (item: Infections, AESI; human, HR+/HER2− advanced breast cancer; oral, dose not given, grade 3, CTCAE v4.03).
